Assay results collected from several papers.
Each numbered part is a random draw from the data of one study; scales do not carry over between parts.
UniProt Q9NWZ3, sequence (whole entry, looked up): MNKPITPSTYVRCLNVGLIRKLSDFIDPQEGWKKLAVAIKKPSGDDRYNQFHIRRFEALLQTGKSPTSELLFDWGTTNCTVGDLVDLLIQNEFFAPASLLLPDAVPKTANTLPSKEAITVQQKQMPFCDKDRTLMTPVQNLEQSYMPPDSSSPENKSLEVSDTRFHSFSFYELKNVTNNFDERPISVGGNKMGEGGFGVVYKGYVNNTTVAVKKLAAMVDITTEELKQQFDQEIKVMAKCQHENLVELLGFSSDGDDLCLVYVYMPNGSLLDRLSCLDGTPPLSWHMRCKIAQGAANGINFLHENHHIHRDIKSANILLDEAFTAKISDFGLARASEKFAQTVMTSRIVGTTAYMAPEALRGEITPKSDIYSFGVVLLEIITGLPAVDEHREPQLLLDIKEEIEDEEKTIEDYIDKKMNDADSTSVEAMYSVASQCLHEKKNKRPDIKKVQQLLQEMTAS
UniProt O60674, sequence (whole entry, looked up): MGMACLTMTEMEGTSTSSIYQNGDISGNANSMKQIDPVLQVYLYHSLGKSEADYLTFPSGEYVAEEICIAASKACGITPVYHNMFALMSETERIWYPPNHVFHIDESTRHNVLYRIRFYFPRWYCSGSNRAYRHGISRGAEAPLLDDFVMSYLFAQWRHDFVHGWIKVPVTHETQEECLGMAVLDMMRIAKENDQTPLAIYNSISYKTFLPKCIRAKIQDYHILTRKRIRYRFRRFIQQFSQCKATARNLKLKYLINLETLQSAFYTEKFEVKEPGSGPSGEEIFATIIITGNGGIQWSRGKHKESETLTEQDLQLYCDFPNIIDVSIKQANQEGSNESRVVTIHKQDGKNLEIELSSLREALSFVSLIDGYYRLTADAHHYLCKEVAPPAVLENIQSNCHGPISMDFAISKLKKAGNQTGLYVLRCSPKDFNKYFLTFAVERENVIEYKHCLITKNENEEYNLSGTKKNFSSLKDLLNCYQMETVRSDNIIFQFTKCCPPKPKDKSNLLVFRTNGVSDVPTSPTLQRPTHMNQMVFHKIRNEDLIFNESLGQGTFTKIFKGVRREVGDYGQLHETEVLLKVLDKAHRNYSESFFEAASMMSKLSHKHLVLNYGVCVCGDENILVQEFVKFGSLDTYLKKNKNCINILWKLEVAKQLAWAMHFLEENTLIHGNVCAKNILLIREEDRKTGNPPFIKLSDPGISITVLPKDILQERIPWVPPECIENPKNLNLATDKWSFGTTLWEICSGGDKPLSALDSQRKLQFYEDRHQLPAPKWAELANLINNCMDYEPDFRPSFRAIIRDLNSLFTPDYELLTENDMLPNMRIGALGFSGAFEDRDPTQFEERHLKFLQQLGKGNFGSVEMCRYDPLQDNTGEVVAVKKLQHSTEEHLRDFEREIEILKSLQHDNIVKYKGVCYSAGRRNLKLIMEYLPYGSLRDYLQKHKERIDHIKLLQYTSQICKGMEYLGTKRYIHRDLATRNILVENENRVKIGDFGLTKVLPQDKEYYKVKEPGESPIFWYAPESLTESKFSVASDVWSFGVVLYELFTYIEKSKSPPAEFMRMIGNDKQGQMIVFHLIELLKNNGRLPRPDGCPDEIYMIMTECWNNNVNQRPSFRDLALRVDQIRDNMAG
UniProt P30530, sequence (whole entry, looked up): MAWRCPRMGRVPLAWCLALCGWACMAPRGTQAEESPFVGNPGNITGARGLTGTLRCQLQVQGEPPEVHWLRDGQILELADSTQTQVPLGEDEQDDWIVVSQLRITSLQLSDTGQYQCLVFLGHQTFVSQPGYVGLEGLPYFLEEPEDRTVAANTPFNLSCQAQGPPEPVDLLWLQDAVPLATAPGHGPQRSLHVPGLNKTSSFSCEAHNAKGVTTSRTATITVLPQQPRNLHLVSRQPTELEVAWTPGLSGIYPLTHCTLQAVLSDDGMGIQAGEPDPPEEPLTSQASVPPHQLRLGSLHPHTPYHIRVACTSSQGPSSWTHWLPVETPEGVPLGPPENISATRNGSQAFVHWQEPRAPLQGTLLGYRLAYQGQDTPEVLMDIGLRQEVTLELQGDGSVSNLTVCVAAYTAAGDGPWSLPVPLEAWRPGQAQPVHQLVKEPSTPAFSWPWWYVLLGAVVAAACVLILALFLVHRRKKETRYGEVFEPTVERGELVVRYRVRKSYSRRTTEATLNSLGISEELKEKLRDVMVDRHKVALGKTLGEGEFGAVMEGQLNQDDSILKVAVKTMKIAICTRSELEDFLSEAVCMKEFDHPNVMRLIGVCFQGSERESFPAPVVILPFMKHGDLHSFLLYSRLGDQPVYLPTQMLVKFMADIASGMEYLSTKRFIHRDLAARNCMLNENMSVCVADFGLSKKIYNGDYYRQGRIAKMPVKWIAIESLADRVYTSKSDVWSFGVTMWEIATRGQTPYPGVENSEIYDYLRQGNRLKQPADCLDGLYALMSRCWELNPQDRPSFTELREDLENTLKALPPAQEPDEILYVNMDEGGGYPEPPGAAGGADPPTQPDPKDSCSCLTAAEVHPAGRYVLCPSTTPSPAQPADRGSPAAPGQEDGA
UniProt Q96D53, sequence (whole entry, looked up): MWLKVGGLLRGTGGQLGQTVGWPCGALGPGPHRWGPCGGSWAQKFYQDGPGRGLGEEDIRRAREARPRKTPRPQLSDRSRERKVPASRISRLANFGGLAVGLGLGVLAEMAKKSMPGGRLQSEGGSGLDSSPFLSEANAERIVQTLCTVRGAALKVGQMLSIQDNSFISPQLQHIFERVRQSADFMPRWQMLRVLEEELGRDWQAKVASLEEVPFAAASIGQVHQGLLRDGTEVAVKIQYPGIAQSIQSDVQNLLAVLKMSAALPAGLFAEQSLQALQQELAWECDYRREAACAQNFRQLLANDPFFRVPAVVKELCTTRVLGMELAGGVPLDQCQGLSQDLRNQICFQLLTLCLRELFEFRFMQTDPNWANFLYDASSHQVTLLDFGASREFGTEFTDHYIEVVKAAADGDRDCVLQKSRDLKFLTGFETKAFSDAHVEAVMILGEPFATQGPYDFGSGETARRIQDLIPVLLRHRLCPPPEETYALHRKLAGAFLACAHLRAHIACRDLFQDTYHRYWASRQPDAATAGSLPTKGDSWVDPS
UniProt Q02779, sequence (whole entry, looked up): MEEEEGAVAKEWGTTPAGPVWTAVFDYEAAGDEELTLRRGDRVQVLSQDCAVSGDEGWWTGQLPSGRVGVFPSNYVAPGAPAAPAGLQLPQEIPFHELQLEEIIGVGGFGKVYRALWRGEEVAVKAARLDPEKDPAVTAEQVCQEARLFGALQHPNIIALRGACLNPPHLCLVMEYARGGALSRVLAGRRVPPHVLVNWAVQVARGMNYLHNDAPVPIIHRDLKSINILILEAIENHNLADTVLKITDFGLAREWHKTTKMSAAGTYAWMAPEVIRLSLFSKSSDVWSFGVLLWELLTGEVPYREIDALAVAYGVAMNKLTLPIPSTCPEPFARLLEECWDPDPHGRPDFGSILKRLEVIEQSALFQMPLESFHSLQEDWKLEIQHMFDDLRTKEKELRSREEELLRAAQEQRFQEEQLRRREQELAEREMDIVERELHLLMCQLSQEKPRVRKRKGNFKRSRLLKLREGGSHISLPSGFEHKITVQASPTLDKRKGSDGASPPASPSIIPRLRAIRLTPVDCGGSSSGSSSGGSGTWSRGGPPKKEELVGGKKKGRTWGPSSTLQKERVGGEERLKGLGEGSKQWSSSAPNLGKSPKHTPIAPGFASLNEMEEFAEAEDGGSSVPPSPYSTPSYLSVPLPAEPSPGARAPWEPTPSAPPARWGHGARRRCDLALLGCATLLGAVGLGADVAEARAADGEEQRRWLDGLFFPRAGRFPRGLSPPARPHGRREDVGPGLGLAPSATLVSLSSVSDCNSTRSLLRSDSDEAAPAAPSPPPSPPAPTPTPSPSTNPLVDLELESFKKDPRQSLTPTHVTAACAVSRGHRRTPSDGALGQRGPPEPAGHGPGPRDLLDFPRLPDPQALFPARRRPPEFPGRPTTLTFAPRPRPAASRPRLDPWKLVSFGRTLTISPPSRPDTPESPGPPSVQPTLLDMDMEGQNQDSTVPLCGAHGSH

Sample 1 — effect on: cell-free assay; method: competition with immobilised ligand; tested at: 1 µM; quantity: remaining binding
SMILES: CN(c1ccnc(CNc2nc(Nc3ccc4c(c3)CC(=O)N4)ncc2C(F)(F)F)n1)S(C)(=O)=O
target = TBK1 (Homo sapiens, UniProt Q9UHD2); result = 21%
target = MAP3K10 (Homo sapiens, UniProt Q02779); result = 49%
target = IRAK4 (Homo sapiens, UniProt Q9NWZ3); result = 50%
target = MAP2K5 (Homo sapiens, UniProt Q13163); result = 48%
target = AXL (Homo sapiens, UniProt P30530); result = 21%
target = Tyrosine-protein kinase ABL1, phosphorylated (ABL1, Homo sapiens, UniProt P00519, T315I); result = 11%
target = Myosin-IIIa (MYO3A, Homo sapiens, UniProt Q8NEV4); result = 100%
target = Tyrosine-protein kinase JAK2, JH1 (JAK2, Homo sapiens, UniProt O60674); result = 3.8%
target = COQ8B (Homo sapiens, UniProt Q96D53); result = 84%
target = MAPK15 (Homo sapiens, UniProt Q8TD08); result = 4.8%
target = TSSK3 (Homo sapiens, UniProt Q96PN8); result = 80%

Sample 2 — method: RNA Bind-n-Seq; molecule type: RNA; matrix: in vitro; tested at: 1 µM; notes: whole 134-nt RNA, ends assumed; added: 150 mM KCl; relative to: input library; reading: higher = stronger binding; quantity: log2 enrichment
Target: Ras GTPase-activating protein-binding protein 1, C-terminal RGG region (G3BP1, Homo sapiens, UniProt Q13283)
UniProt Q13283, sequence (whole entry, looked up): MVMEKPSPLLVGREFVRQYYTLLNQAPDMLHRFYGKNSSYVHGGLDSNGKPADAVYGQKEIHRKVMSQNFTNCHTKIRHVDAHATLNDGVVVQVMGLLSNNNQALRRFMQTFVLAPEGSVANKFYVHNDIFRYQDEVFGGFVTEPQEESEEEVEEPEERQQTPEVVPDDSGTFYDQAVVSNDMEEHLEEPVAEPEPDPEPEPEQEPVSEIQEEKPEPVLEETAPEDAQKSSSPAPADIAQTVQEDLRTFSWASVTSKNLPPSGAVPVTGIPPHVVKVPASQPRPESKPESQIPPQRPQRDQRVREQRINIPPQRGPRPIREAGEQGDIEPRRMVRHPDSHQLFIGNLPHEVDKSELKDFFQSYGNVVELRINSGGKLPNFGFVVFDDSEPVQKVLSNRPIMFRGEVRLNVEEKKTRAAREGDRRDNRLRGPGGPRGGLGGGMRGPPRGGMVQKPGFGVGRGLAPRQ
Constant ends, left off below: GGGAGUUCUACAGUCCGACGAUC … UGGAAUUCUCGGGUGUCAAGG
Strand = UCAAGUCCUGUGCUACACAUCGUAUGUACCGAAUCGGUGGAAAAAAAGGAAAGGAAAGUAUUAUGUUACGCCGUUCGGAUCUGCACUUCC; result = -1.4
Strand = GCAGGAAGUAAAAACAAAUGGAAAUGCUUCGGAUAGUGGCAGGGGUGGGGGUUGCUAAGGAAAGGGUGGGACGGGAGUGGGUAAAGAGUU; result = 1.82
Strand = GUCCUGUGCUACACAUCGUAUGUACCGAAUCGGGGAAAGGGGUUUUUUUGGGGUGGGGAAAGUAUUAUGUUACGCCGUUCGGAUCUGCAC; result = 1.74
Strand = UAACUGUAGAGGAGGAUCUGAUGGAUAUGGCAGUGGACGUGGAUUUGGGGAUGGCUAUAAUGGGUAUGGAGGAGGACCUGGAGGUGGCAA; result = -0.0227
Strand = GUCCUGUGCUACACAUCGUAUGUACCGAAUCGGGAAAAAAAGGGUUUUUGGGAAAGGGAAAGUAUUAUGUUACGCCGUUCGGAUCUGCAC; result = -0.643
Strand = AGUCCUGUGCUACACAUCGUAUGUACCGAAUCGGUUUUUGGAAAAAGGUUUUUUUGGAAAGUAUUAUGUUACGCCGUUCGGAUCUGCACU; result = -2.42
Strand = CUGUGCUACACAUCGUAUGUACCGAAUCGGGGUUUUUUUGGGGUUUGGGGAAAAAAAGGGGAAAGUAUUAUGUUACGCCGUUCGGAUCUG; result = -0.339
Strand = CAAGUCCUGUGCUACACAUCGUAUGUACCGAAUCGGUUUUUUUGGAAAAAGGUGGAAAGUAUUAUGUUACGCCGUUCGGAUCUGCACUUC; result = -1.73

Sample 3 — method: protein binding microarray; molecule type: double-stranded DNA, one strand shown; matrix: in vitro; tested at: not given; relative to: not given; reading: higher = stronger binding; quantity: E-score
Target: Histone acetyltransferase KAT6A, both winged helices, GST fusion (KAT6A, Homo sapiens, UniProt Q92794, residues 1-181)
Notes: 8-mer, flanks averaged, mean of 2 arrays, mostly near background
Construct (chain): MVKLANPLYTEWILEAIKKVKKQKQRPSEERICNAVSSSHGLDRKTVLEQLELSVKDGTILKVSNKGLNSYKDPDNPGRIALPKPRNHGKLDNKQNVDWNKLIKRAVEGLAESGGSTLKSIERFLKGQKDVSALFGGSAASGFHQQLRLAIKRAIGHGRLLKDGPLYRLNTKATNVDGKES
Strand = CAGAGCGG; result = 0.148
Strand = ATGAAGGG; result = -0.205
Strand = GACTAAGA; result = -0.0511
Strand = ATTTACTC; result = 0.00181
Strand = CCATCATC; result = -0.0865
Strand = ATGAGGGA; result = -0.172
Strand = GCTCAGGA; result = -0.015
Strand = TAGCAAAA; result = 0.0269

Sample 4 — effect on: enzyme activity; mode: inhibitor; tested at: 0.5 µM; relative to: control; quantity: remaining activity
Target: Calcium/calmodulin-dependent protein kinase type 1 (CAMK1, Homo sapiens, UniProt Q14012)
UniProt Q14012, sequence (whole entry, looked up): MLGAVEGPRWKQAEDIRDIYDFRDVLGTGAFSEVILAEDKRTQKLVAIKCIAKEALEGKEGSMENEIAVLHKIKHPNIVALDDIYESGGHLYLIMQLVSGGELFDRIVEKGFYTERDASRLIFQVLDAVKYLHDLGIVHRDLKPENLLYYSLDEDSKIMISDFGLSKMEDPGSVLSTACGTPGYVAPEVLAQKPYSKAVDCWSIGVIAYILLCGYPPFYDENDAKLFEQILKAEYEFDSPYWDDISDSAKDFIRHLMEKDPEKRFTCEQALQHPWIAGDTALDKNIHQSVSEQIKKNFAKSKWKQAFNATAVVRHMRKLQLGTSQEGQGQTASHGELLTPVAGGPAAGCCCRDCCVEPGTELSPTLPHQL
SMILES = CC(C)[C@H](CO)Nc1nc(Nc2cc(N)cc(Cl)c2)c2ncn(C(C)C)c2n1; result = 95.3%
SMILES = Cc1cccc(-c2[nH]c(C(C)(C)C)nc2-c2ccc3c(c2)OCO3)n1; result = 99.8%
SMILES = O=S(=O)(c1cccc2cnccc12)N1CCCNCC1; result = 99.4%
SMILES = CN(C)c1ccc(C=C2C(=O)Nc3ccccc32)cc1; result = 104%
SMILES = O=C1NC(=O)C(c2cn(CCCO)c3ncccc23)=C1c1cnccn1; result = 101%
SMILES = Cn1sc(=O)n(Cc2ccccc2)c1=O; result = 100%
SMILES = Cc1ccc(Nc2nccc(N(C)c3ccc4c(C)n(C)nc4c3)n2)cc1S(N)(=O)=O; result = 87.4%
SMILES = Cc1nc(-c2ccccc2)c(-c2ccncc2)o1; result = 105%
SMILES = O=C(CCCc1ccc(-c2ccccc2F)cc1)Nc1ccc(O)cc1; result = 101%
SMILES = CNC(=O)c1cc(Oc2ccc(NC(=O)Nc3ccc(Cl)c(C(F)(F)F)c3)cc2)ccn1; result = 106%
SMILES = CCOC(=O)c1c(C)[nH]c(/C=C2\C(=O)Nc3ccccc32)c1C; result = 98.1%
SMILES = C#Cc1cccc(Nc2ncnc3cc(OCCOC)c(OCCOC)cc23)c1; result = 98.9%
SMILES = COc1cc2ncnc(Nc3ccc(Oc4ccccc4)cc3)c2cc1OC; result = 105%
SMILES = COc1ccc(OC)c2c(=S)c3ccccc3[nH]c12; result = 75.2%
SMILES = O=c1c2ccccc2[nH]c(=S)n1CCN1CCC(=C(c2ccc(F)cc2)c2ccc(F)cc2)CC1; result = 98.6%

Some of these lines once more (sample 3):
Strand = GACTAAGA; result = -0.0511
Strand = ATTTACTC; result = 0.00181
Strand = CCATCATC; result = -0.0865
Strand = ATGAGGGA; result = -0.172
Strand = GCTCAGGA; result = -0.015
